Results from different studies.
Lines come from different studies, so protocols differ. Numbers after ± are the reported error.

C=CC(=O)N1CCC[C@@H](n2nc(-c3ccc(Oc4ccccc4)cc3)c3c(N)ncnc32)C1  Cmax (Wistar rat, plasma; oral, dose not given, suspension): 453 ± 13.6 ng/mL
CC(C)(N)COCC(=O)N1CCC[C@H](C(=O)NCc2nc(-c3ccc(C(F)(F)F)cc3)cs2)C1  Cmax (Sprague-Dawley rat, male, plasma; oral, 3 mg/kg): 24 nM
CCCCCCCOc1ccc(CCC(N)(CO)CO)cc1C(F)(F)F.Cl  Cmax (male Sprague-Dawley rat, heart; oral, 1 mg/kg, single dose): 174 ng/g
CCn1ccc2c([C@](O)(c3cnc(C(F)(F)F)c(Cl)c3)C3CC3)n(C)nc2c1=O  Cmax (Sprague-Dawley rat, male; oral, 3 mg/kg, suspension): 516 ± 126 nM
CC(C)c1nc(N(C)S(C)(=O)=O)nc(-c2ccc(F)cc2)c1/C=C/[C@@H](O)C[C@@H](O)CC(=O)O  Cmax (rat, Wistar albino, plasma; oral, 20 mg/kg): 850 ng/mL
CNC(=O)c1cccc(-c2ccc([C@@H](O)[C@H]3O[C@H](CO)[C@@H](O)[C@H](O)[C@@H]3O)c(C)c2)c1  Cmax (male Sprague-Dawley rat, plasma; oral, 10 mg/kg, group mean): 18.6 ng/mL
CN1CCC[C@H](CN2c3ccccc3Sc3ccccc32)C1.Cl  Cmax (female Wistar rat, liver; oral, 16 mg/kg): 25500 ng/g
CN(C(=O)n1cnc(-c2ccc[n+]([O-])c2)c1)C1CCCCC1  Cmax (Wistar Han rat, brain; oral, 10 mg/kg, 1 h): 840 ± 51 ng/g
O=C(O)CCSC[C@H]1O[C@@H]2O[C@H]3[C@H](O)[C@@H](O)[C@@H](O[C@H]4[C@H](O)[C@@H](O)[C@@H](O[C@H]5[C@H](O)[C@@H](O)[C@@H](O[C@H]6[C@H](O)[C@@H](O)[C@@H](O[C@H]7[C@H](O)[C@@H](O)[C@@H](O[C@H]8[C@H](O)[C@@H](O)[C@@H](O[C@H]9[C@H](O)[C@@H](O)[C@@H](O[C@H]1[C@H](O)[C@H]2O)O[C@@H]9CSCCC(=O)O)O[C@@H]8CSCCC(=O)O)O[C@@H]7CSCCC(=O)O)O[C@@H]6CSCCC(=O)O)O[C@@H]5CSCCC(=O)O)O[C@@H]4CSCCC(=O)O)O[C@@H]3CSCCC(=O)O  Cmax (Sprague Dawley rats, plasma; intravenous, 5 mg/kg, added: rocuronium bromide IV): 50600 ng/mL
Cc1cccc(CNC(=O)c2cn(CCNC(=O)c3ccccc3Sc3c([N+](=O)[O-])ncn3C)c3cc4c(cc3c2=O)OC(F)(F)O4)n1  Cmax (Sprague-Dawley rat, male, whole blood; intramuscular, 10 mg/kg of parent drug): 26.2 ± 14.7 ng/mL
N#CC(Cc1ccc(O)cc1)c1ccc(O)cc1 (stereo not drawn)  Cmax (item: aglycone; rat, Long-Evans, female, serum; subcutaneous, 2 mg/kg single dose): 1000 ± 440 nM
C=CC(=O)N1CCC(Oc2cc3c(Nc4ccc(Cl)c(Cl)c4F)ncnc3cc2OC)CC1  Cmax (Sprague-Dawley rat, male, plasma; oral, 2 mg/kg, 1 weeks pretreatment, added: Schisandrin A 20 mg/kg daily pretreatment): 1410 ± 379 ng/mL
O=C(O)C1=CO[C@@H](O[C@@H]2O[C@H](CO)[C@@H](O)[C@H](O)[C@H]2O)[C@@H]2C(CO)=CC[C@H]12  Cmax (rat, plasma; oral, 500 mg/kg Eu extract, dosed as Eu extract): 912 ± 635 ng/mL
CSc1ccccc1C(=O)NCCn1cc(C(=O)NCc2cccc(C)n2)c(=O)c2cc3c(cc21)OC(F)(F)O3  Cmax (Sprague-Dawley rat, male, whole blood; intramuscular, 30 mg/kg of parent drug): 6.28 ± 2.58 ng/mL
C#C[C@]1(CO)O[C@@H](n2cnc3c(N)nc(F)nc32)C[C@@H]1O  Cmax (rat, plasma; 100 mg/kg/day, 7 days): 28300 nM
O=C(O)c1cc(O)c(O)c(O)c1  Cmax (rat, plasma; oral, 1000 mg/kg extract, possible metabolite or extract component): 1700 ± 390 ng/mL
COCC(=O)N1CCC[C@H](C(=O)NCc2nc(-c3ccc(C#N)cc3)cs2)C1  Cmax (Sprague-Dawley rat, male, plasma; oral, 3 mg/kg): 21000 nM
CN(C)C(=O)c1cc2cnc(Nc3ccc(N4CCNCC4)cn3)nc2n1C1CCCC1  Cmax (striatal microdialysis, recovery corrected; Sprague-Dawley rat male, brain extracellular fluid; intraperitoneal, 100 mg/kg): 197 ng/mL
Cc1cc(-c2ccc3cc[nH]c(=O)c3c2)ccc1O[C@H]1O[C@H](CO)[C@@H](O)[C@H](O)[C@@H]1O  Cmax (Sprague-Dawley rat, male, plasma; oral, 10 mg/kg): 5.93 ng/mL
N=C(N)NCCNC(=O)C1(Nc2ccccc2)CCN(Cc2ccccc2)CC1  Cmax (Sprague-Dawley rats (both sexes), plasma; oral, 50 mg/kg): 369 ± 55.7 ng/mL
Nc1ccn([C@@H]2O[C@H](CO)[C@@H](O)C2(F)F)c(=O)n1  Cmax (Sprague-Dawley rat, male, plasma; intravenous, 5 mg/kg): 14800 ± 1120 ng/mL
Cc1cccc(CNC(=O)c2cn(CCNC(=O)c3ccccc3S)c3cc4c(cc3c2=O)OC(F)(F)O4)n1  Cmax (Sprague-Dawley rat, male, whole blood; intramuscular, 30 mg/kg of parent drug): 388 ± 171 ng/mL
CCc1cc(C(=O)NC)c2nccc(N3CCc4c(cc(Cn5ccnc5)cc4-c4cn(C)nc4C(F)(F)F)C3=O)c2c1  Cmax (Sprague Dawley rat, male, plasma; oral, 100 mg/kg twice daily, day 1): 11900 ng/mL
Cn1c(C(F)(F)F)cc(=O)n(-c2cc(Oc3cccnc3OCC(=O)O)c(Cl)cc2F)c1=O  Cmax (Crl:CD(SD) rats, female, plasma; oral diet, 50 ppm in diet, day 1, 90-day toxicity study): 85.4 ng/mL
CCCCOCCOc1ccc(-c2ccc3c(c2)/C=C(/C(=O)Nc2ccc([S@@+]([O-])Cc4cncn4CCC)cc2)CCCN3CC(C)C)cc1  Cmax (moderate hepatic impairment patients, plasma; oral, 150 mg, day 1, single dose, geometric mean): 387 ng/mL
OCC1=C[C@@H](O)[C@@H]2C=CO[C@@H](O[C@@H]3O[C@H](CO)[C@@H](O)[C@H](O)[C@H]3O)[C@H]12  Cmax (rat, plasma; oral, 500 mg/kg Eu + 217 mg/kg Pc extract, dosed as combined Eu and Pc extracts): 35.7 ± 17.1 ng/mL
CC(=O)CC(c1ccccc1)c1c(O)c2ccccc2oc1=O (stereo not drawn)  Cmax (Sprague-Dawley rat, male, plasma; oral, 0.2 mg/kg, added: miconazole; relative to: cpd alone): 100%

Repeated from above:
Cn1c(C(F)(F)F)cc(=O)n(-c2cc(Oc3cccnc3OCC(=O)O)c(Cl)cc2F)c1=O  Cmax (Crl:CD(SD) rats, female, plasma; oral diet, 50 ppm in diet, day 1, 90-day toxicity study): 85.4 ng/mL
CCCCOCCOc1ccc(-c2ccc3c(c2)/C=C(/C(=O)Nc2ccc([S@@+]([O-])Cc4cncn4CCC)cc2)CCCN3CC(C)C)cc1  Cmax (moderate hepatic impairment patients, plasma; oral, 150 mg, day 1, single dose, geometric mean): 387 ng/mL
